Measurements pooled from the literature.
Numbered parts are unrelated; each lists some results of a single study. Values joined by “and” are separate records of one study, mostly repeats; a detail may differ. Changes are numbered by the printed parent chain.
Sequence of UniProt Q9C5W9 (whole entry, looked up): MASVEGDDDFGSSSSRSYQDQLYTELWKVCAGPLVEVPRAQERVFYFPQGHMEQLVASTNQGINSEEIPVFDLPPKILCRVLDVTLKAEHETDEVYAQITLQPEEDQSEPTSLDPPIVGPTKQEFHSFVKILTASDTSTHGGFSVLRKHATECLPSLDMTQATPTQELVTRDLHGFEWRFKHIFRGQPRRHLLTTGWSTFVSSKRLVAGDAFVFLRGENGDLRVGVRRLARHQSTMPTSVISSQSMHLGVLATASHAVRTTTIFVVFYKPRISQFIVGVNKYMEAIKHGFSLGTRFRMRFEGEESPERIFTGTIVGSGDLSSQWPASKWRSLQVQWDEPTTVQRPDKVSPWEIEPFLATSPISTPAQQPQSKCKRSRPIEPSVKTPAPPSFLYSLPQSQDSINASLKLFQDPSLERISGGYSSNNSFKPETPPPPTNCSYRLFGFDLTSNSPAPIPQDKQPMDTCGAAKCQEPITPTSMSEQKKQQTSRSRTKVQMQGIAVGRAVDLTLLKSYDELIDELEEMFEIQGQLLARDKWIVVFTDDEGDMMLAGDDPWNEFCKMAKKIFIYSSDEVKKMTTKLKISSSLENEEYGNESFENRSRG
Sequence of UniProt O24409 (whole entry, looked up): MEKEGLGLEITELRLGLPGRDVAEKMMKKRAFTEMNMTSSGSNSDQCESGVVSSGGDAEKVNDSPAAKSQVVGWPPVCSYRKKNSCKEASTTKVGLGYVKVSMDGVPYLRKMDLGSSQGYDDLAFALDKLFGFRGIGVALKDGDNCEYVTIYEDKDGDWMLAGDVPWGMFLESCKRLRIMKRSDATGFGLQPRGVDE
Sequence of UniProt P93024 (whole entry, looked up): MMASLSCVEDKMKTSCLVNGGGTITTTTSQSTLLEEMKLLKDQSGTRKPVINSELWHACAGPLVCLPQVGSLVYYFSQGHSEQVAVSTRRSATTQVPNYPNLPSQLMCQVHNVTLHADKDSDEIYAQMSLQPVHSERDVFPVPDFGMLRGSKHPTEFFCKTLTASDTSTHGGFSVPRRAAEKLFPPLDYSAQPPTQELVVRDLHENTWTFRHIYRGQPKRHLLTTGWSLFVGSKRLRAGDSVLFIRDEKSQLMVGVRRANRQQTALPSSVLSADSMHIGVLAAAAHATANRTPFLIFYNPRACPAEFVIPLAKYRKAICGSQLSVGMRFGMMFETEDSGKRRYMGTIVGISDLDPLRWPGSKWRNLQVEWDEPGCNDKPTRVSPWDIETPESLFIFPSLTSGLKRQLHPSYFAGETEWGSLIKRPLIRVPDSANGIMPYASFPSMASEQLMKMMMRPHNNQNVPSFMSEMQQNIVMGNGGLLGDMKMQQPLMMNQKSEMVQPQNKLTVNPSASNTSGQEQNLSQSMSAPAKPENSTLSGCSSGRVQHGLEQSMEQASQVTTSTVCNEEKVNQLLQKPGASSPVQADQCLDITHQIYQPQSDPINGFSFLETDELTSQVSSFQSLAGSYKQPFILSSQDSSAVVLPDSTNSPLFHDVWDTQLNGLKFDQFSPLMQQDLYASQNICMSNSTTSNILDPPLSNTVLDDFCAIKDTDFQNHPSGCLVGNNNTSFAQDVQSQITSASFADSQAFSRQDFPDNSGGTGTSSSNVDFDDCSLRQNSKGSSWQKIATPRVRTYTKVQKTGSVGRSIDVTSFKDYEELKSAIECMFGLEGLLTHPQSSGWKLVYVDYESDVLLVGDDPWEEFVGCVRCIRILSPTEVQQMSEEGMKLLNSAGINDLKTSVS
Sequence of UniProt Q9LQE8 (whole entry, looked up): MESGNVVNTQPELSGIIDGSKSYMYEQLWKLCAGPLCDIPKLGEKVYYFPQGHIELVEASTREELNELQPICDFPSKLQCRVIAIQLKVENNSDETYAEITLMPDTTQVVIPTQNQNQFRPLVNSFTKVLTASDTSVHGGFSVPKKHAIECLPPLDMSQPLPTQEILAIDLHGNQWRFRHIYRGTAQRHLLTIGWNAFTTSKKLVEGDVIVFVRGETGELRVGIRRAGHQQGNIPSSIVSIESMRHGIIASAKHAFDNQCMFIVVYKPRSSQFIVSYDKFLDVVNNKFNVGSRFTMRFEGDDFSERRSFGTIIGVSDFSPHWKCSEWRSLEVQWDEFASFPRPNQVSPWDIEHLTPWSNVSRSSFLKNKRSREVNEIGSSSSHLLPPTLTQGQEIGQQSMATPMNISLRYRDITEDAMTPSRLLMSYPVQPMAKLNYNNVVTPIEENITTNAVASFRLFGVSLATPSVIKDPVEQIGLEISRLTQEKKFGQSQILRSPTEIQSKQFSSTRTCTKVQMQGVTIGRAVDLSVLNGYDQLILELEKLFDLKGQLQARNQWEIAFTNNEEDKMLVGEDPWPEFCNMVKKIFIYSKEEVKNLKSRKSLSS
Sequence of UniProt Q93WC4 (whole entry, looked up): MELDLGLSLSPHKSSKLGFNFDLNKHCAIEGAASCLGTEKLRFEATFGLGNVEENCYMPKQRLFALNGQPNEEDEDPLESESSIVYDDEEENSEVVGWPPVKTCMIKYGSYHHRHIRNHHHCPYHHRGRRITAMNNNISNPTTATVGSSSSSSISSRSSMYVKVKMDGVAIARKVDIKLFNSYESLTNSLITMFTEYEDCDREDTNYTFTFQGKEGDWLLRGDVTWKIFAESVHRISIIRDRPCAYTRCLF
Sequence of UniProt P93830 (whole entry, looked up): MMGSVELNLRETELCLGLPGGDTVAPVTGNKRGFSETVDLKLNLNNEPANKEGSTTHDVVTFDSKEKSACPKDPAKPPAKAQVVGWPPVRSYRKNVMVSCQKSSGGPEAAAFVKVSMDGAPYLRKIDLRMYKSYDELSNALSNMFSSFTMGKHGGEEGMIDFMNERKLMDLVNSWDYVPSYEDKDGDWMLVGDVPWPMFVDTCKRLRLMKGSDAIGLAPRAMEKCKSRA
Sequence of UniProt Q9ZSY8 (whole entry, looked up): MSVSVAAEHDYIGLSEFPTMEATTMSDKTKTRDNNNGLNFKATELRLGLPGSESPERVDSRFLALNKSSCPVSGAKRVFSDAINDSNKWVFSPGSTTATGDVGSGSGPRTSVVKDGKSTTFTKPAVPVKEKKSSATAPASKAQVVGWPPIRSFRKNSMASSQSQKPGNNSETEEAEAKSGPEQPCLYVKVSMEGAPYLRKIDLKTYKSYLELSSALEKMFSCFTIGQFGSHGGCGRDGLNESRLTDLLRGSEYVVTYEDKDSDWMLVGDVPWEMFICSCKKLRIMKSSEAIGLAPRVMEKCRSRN
Sequence of UniProt Q9C5X0 (whole entry, looked up): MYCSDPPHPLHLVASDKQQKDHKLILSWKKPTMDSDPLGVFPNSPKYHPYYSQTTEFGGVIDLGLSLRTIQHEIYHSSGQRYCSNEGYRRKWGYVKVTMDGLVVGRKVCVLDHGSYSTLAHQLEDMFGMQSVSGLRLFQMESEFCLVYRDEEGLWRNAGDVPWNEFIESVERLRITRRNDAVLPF

Set 1 — Molecule: B1 (IAA15); technique: two-hybrid; direction: higher = firmer interaction; endpoint: positive tests
B1: IAA15 (Arabidopsis thaliana, UniProt Q9C966); chain MSPEEYVRVWPDSGDLGGTELTLALPGTPTNASEGPKKFGNKRRFLETVDLKLGEAHENNYISSMVTNDQLVGWPPVATARKTVRRKYVKVALDGAAYLRKVDLGMYDCYGQLFTALENMFQGIITICRVTELERKGEFVATYEDKDGDLMLVGDVPWMMFVESCKRMRLMKTGDAIGL
partner = IAA29 (Arabidopsis thaliana, UniProt Q93WC4); how to read = baseline: out of 4 tests; result = 1
partner = ARF14 497-605 (Arabidopsis thaliana, UniProt Q9LQE8); how to read = baseline: out of 2 tests; result = 0
partner = ARF18 482-602 (Arabidopsis thaliana, UniProt Q9C5W9); how to read = baseline: out of 2 tests; result = 0
partner = IAA34 (Arabidopsis thaliana, UniProt Q9C5X0); how to read = baseline: out of 4 tests; result = 3
partner = IAA27 (Arabidopsis thaliana, UniProt Q9ZSY8); how to read = baseline: out of 2 tests; result = 0
partner = IAA17 (Arabidopsis thaliana, UniProt P93830); how to read = baseline: out of 4 tests; result = 3
partner = IAA19 (Arabidopsis thaliana, UniProt O24409); how to read = baseline: out of 4 tests; result = 3
partner = ARF5 788-902 (Arabidopsis thaliana, UniProt P93024); how to read = baseline: out of 4 tests; result = 4

Set 2 — effect on: enzyme activity; action: inhibitor; concentration: 0.5 µM; baseline: control; endpoint: remaining activity
Target: High affinity nerve growth factor receptor (NTRK1, Homo sapiens, UniProt P04629)
Sequence of UniProt P04629 (whole entry, looked up): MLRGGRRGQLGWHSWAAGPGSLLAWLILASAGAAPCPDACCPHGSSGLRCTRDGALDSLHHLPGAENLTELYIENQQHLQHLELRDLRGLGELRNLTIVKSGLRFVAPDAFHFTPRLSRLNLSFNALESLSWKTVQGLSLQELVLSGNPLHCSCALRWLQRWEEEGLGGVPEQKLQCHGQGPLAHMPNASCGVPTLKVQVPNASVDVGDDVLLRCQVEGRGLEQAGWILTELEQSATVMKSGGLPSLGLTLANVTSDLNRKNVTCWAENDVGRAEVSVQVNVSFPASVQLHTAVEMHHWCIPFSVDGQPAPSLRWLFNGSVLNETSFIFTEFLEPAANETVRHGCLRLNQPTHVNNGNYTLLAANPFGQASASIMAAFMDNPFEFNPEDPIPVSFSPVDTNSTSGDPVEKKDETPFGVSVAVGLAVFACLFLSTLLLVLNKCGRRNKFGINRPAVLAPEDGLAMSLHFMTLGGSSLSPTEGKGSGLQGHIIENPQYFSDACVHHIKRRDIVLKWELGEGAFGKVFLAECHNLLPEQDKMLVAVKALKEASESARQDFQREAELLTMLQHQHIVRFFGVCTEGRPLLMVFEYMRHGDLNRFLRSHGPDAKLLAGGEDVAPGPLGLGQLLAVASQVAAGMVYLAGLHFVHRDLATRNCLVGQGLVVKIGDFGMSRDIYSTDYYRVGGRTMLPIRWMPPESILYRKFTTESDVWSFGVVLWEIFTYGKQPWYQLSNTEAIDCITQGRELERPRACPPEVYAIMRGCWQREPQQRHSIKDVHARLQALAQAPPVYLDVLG
Structure (SMILES) = CCCNC(=O)Nc1ccc(Oc2ncnc3cc(OC)c(OC)cc23)cc1Cl; result = 93.2%
Structure (SMILES) = COc1ccc(COc2ccc(Cc3cnc(N)nc3N)cc2OC)cc1; result = 51.3%
Structure (SMILES) = CCCCc1c(-c2ccc(OC)cc2)[nH]c2nccnc12; result = 109%
Structure (SMILES) = O=c1cc(N2CCOCC2)oc2c(-c3ccccc3)cccc12; result = 95%
Structure (SMILES) = Cc1ccc(S(=O)(=O)/C=C/C#N)cc1; result = 90.1%
Structure (SMILES) = O=C(c1cc2cc(O)ccc2[nH]1)c1cc2cc(O)ccc2[nH]1; result = 57.2%
Structure (SMILES) = N#Cc1cnc2cnc(NCc3cccnc3)cc2c1Nc1ccc(F)c(Cl)c1; result = 96.2%
Structure (SMILES) = CN1CCN(c2ccc3nc(-c4c(N)c5c(F)cccc5[nH]c4=O)[nH]c3c2)CC1; result = 4.57%
Structure (SMILES) = O=Nc1c(-c2c(O)[nH]c3cc(Br)ccc23)[nH]c2ccccc12; result = 34.5%

Set 3 — technique: CellTiter-Glo; concentration: 1 µM; baseline: DMSO; endpoint: viability
Cell line: normal-adjacent epithelium patient-derived organoids sample G
SMILES = CCCCNc1ncc(-c2ccc(CN3CCOCC3)cn2)c(NC2CCC(O)CC2)n1 (stereo not shown); result = 94.5% and 110%
SMILES = CN1CCN(Cc2cc(NC(=O)c3ccc4c(c3)CN(c3ccccc3)CC4)cc(C(F)(F)F)c2)CC1; result = 85% and 79.3%
SMILES = Cc1ncc(-c2cc(Cl)ccc2F)cc1-n1c(=O)n(CC(N)=O)c2ccccc21; result = 105% and 108%
SMILES = Cc1cc2c(-c3ccco3)cnc(N[C@H]3CCN(C)C[C@@H]3C(=O)NC3CCCCC3)c2[nH]c1=O; result = 99.8%
SMILES = CN(C)C(=O)Cn1cc(-c2ccc(-c3nnc4ccccn34)cc2)cn1; result = 132% and 113%
SMILES = Cc1ccc(NC(=O)Nc2cc(C(F)(F)F)ccc2F)cc1Nc1ccc2c(c1)NC(=O)/C2=C\c1ccc[nH]1; result = 135%

Set 4 — technique: DHFR PCA, dose-response; medium: yeast; with: (+)-ABA, dose series; direction: lower = more sensitive; endpoint: ABA EC50
Target: ABI1, truncated, D143A, DHFR fusion (Arabidopsis thaliana, UniProt P49597)
Setting: Hill fit, not affinity, not high confidence
Starting sequence: PYL1, truncated, DHFR fusion (Arabidopsis thaliana, UniProt Q8VZS8); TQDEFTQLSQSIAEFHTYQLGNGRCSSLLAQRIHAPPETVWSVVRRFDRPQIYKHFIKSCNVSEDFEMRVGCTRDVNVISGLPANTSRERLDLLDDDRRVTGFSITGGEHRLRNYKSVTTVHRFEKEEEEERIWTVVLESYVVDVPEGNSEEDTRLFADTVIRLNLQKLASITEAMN
Variant = V121Y; result = 0.119 µM
Variant = P50Y; result = 406 µM
Variant = F103A; result = 126 µM
Variant = P83N; result = 397 µM
Variant = V44W; result = 704 µM
Variant = Q7H; result = 2.78 µM
Variant = S140L; result = 83.7 µM
Variant = L91A; result = 705 µM

Excerpt of the above (set 4):
Variant = P83N; result = 397 µM
Variant = V44W; result = 704 µM
